Results of several laboratories.
Compare with care: the assays were run in different laboratories. Several values in a cell are separate wells, animals, samples, runs or records. Numbers after ± are the reported error.

SMILES	assay	system	setting	how to read	measurement	result
CCCCCC1=C(NCC)C(=O)C(C/C=C(\C)CCC=C(C)C)=C(O)C1=O	GSEA of striatal RNA-Seq, refers to: HALLMARK_MYC_TARGETS_V2	lesioned A53T mice, striatum	dose not given	reference: A53T mice, direction not given	normalized enrichment score	-1.68
CCc1nnc(-c2c(OC)cc(-c3cnc4cc(-c5cnn(C)c5)ccn34)cc2OC)o1	histomorphometry	male C57BL/6J mouse, tibia	oral gavage, 40 mg/kg once daily, 3 wk	–	osteoclast surface/bone surface	20.7 ± 2.15%
O=C(O)c1ccc(-c2nc(-c3ccccc3Cl)c3sccn23)cc1	–	C57BL/6 mice, 5-fluorouracil treated	dose not given, day -3	reference: RBC	reticulocytes	1.9% and 1.89% and 1.62% and 1.74%
COc1ccccc1-c1n[nH]c2nc(NC3CCN(C(=O)Cc4ccc(F)cc4F)CC3)ncc12	bead binding, competition bead pull-down, refers to: LINJ.36.0780	Leishmania donovani extract	10 µM	reference: vehicle	relative abundance	0.91
CCN(Cc1ccccc1)C(=O)CCc1nc(CN2CCN(C(=O)Cc3ccc(OC)c(OC)c3)CC2)no1	current clamp	DRG neurons, naive rat	1 µM	–	resting membrane potential	-58.1 ± 1.57 mV
CC(C)C[C@@H]1NC(=O)[C@@H](Cc2c[nH]c3ccccc23)NC(=O)[C@H](CCCNC(=N)N)NC(=O)[C@@H](CCC(=O)O)NC(=O)[C@H](CCC(N)=O)NC(=O)[C@@H](CCC(=O)O)NC(=O)[C@H](CCCNC(=N)N)NC(=O)[C@@H](Cc2c[nH]c3ccccc23)NC1=O	–	male LDLr-/- mouse, Western diet	dose not given, 2 weeks	–	plasma triglyceride level	decreased
CCCCOc1nc(N)c2[nH]c(=O)n(CCCN(CCCN3CCOCC3)Cc3cccc(CC(=O)OC)c3)c2n1	refers to: IFN-regulated genes	human, healthy, plasma	inhalation, 15 µg single, target engagement	–	CXCL10 level	no effect
Cc1cc(O)cc(C)c1C[C@H](N)C(=O)N[C@H](CCCNC(=N)N)C(=O)N[C@@H](Cc1ccccc1)C(=O)N[C@@H](CCCCN)C(=O)NCCCCCCCCCCCCNC(=O)[C@H](Cc1ccccc1)NC(=O)[C@H](CC1CCCCC1)NC[C@@H]1Cc2ccccc2CN1C(=O)[C@@H](N)Cc1ccc(O)cc1	µ-opioid receptor antagonism, antagonist	guinea pig ileum	–	–	Ke	7.65 ± 0.08 µM
COc1ccccc1-c1n[nH]c2nc(N[C@H]3CC[C@H](NS(=O)(=O)CC(C)C)CC3)ncc12	bead binding, competition bead pull-down, refers to: LMJF.34.3670	Leishmania donovani extract	10 µM	reference: vehicle	relative abundance	1.14
CC(C)[C@@H]1NC(=O)[C@@H]2CCCN2C(=O)[C@@H](C(C)C)NC(=O)[C@H]2CCCN2C(=O)[C@H](C(C)C)NC(=O)[C@@H]2CCCN2C(=O)[C@@H](C(C)C)NC(=O)[C@H]2CCCN2C(=O)[C@H](C(C)C)NC(=O)[C@@H]2CCCN2C(=O)[C@@H](C(C)C)NC(=O)[C@H]2CCCN2C1=O	–	sheep lipid bilayer	10 µM, pH 7.4, 23 °C, with: 10 mM K+ vs Tl chloride	–	bi-ionic potential	-29 mV

Excerpt of the above:
SMILES	assay	system	setting	how to read	measurement	result
CC(C)C[C@@H]1NC(=O)[C@@H](Cc2c[nH]c3ccccc23)NC(=O)[C@H](CCCNC(=N)N)NC(=O)[C@@H](CCC(=O)O)NC(=O)[C@H](CCC(N)=O)NC(=O)[C@@H](CCC(=O)O)NC(=O)[C@H](CCCNC(=N)N)NC(=O)[C@@H](Cc2c[nH]c3ccccc23)NC1=O	–	male LDLr-/- mouse, Western diet	dose not given, 2 weeks	–	plasma triglyceride level	decreased
